Experimental data of several laboratories.
Every numbered part comes from another study and shows a few of its results, in no order.

Set 1
Target: Sal-like protein 4, full length isoform A (SALL4, Homo sapiens, UniProt Q9UJQ4, residues 1-1053)
Sequence of UniProt Q9UJQ4 (whole entry, looked up): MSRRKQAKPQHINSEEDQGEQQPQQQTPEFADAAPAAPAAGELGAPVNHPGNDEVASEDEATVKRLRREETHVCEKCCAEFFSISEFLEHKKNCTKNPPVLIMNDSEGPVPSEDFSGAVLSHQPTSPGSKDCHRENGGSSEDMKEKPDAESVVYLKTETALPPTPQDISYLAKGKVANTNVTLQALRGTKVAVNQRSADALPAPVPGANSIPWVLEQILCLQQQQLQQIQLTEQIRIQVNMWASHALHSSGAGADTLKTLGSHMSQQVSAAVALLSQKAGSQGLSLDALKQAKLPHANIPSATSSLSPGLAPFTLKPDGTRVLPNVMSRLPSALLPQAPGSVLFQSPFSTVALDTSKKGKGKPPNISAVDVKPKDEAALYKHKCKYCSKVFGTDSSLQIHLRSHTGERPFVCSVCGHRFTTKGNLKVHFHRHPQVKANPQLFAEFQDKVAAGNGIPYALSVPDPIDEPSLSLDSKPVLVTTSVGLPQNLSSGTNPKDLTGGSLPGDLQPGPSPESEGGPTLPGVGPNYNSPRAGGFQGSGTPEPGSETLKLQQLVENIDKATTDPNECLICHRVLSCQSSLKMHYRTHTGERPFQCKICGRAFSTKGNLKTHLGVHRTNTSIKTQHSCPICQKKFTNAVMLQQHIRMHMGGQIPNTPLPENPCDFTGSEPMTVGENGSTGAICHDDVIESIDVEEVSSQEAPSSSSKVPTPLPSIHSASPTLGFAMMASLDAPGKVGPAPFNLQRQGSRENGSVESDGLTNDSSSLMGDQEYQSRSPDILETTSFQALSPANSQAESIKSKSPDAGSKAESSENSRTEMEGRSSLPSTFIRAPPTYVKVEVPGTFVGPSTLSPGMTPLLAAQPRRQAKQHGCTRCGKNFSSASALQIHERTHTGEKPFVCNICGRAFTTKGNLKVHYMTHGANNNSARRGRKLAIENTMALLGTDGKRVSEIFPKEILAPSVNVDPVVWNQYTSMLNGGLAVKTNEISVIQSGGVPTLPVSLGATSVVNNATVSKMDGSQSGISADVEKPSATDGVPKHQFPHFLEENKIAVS
Method: universal PBM
Form: double-stranded DNA, one strand shown
Sample: in vitro
Concentration: 600 nM
Notes: 8-mer, flanks averaged, mean of replicates
Reading: higher = stronger binding
Strand	E-score
GCTATGAC	0.15
ACGGCTCG	-0.235
GGACCCAA	-0.296
TCGGAGCA	-0.171
AGATCAGC	-0.238
CACCCTCG	-0.301
CCTCAAAC	-0.141

Set 2
Target: RNA binding protein fox-1 homolog 2, RRM domain, GST-SBP tag (RBFOX2, Homo sapiens, UniProt O43251-10, residues 100-194)
Method: RNA Bind-n-Seq
Form: RNA
Sample: in vitro
Concentration: 365 nM
Notes: natural RNA segment, single round, ends assumed
Baseline: no-protein control
Reading: higher = stronger binding
All sequences stand within: GGGAGUUCUACAGUCCGACGAUC … UGGAAUUCUCGGGUGCCAA
Strand	RBNS enrichment (R)
UAGCCUGCAUGGACGAGAAUGGACCUGAUGGAUCUGGACAUGGAGUUGUCUCUGGGAAAGACCACACACUGGGAACUCCACUCAUGCUAGAUGUCCAGGCGGAUUUGGAG	37.5
GGUUGGCUGGUGGGUCACCCAGCAGAGGCUUCUCCCCAUAGCACGAGGAUGUGUUGCCUGGGCACGGUGACUGCGGUUAUUCCUGGAGGUCGGCAGACAUGCCAACCUUG	0.994
GGGCCCCUCCUGCAGCGAGGAUGGGAGGGGGUGCUGAGCUGUGAAUCCCCUGGGCAGGGGGCGACAACUCCGUGUAGCAUUAACCCCCGUGGCGGGGUCCGCUGCUGGUC	1.06
AUCCCUUGCCUCCAUGUGUUUCUAUGCAGCCAUAGUUUGAGGACAGCCAGGCACCCACCUCAGGACAAGUUCAGGAAGGGAAGACAGUGGACUGUACGGGACCUGGUGUG	0.825
CUAACAUUAUCCCCCAGUGAUUACUUUCGAUUACACUGAAGAGACCACCUUGUCUUUAAAGAUCACUUUCCUGGGCUGCAAUGUUCCAACCCAGUUGUUCCAGCUGUUCA	0.435
ACUGUAUGUUUUGCAUUCCUAGAAGCAGGUUAACUGUGUUUUUAAAUUGUUAUAACCACACCUUUUUGAAAUCUGCCCUACAAAAUUUGUUUGGCUUAAACGUCAAAGCC	0.42
GUGUGUGAAGAUAGCUUUUUGGUAUAUUUUAAAAGUGCACAAAUUUAAGAUCUUACUGCUUUAUAAAGUGCUUUAUGAAUUAUAGGAAAAUAAACACAUUUUAGAUCUUA	1.26

Set 3
Target: Prothrombin, mature alpha-thrombin (F2, Homo sapiens, UniProt P00734)
Method: aptamer microarray, sandwich
Form: DNA with 2'F-ANA
Sample: in vitro
Concentration: 200 nM
Notes: whole 15-mer aptamer, many near background
Together with: Cy3 exosite-II aptamer, 400 nM
Reading: higher = stronger binding
Strand: GGTTGGTGTGGTTGG
Modification	mean fluorescence intensity
2'F-ANA at 2 3 4 5 8 10 12 14 15	46.5 a.u.
2'F-ANA at 4 5 6 8 10 12 15	60.6 a.u.
2'F-ANA at 2 6 7 10 12 15	163 a.u.
2'F-ANA at 3 10 11 13	483 a.u.
2'F-ANA at 2 4 5 11	56.3 a.u.
2'F-ANA at 2 4 5 6 8 9 12 13 15	85.1 a.u.
2'F-ANA at 2 3 4 5 8 10 11 12 13 15	74.3 a.u.

Mixed results
Substance	target	test	test system	setting	how to read	endpoint	result
PhoQ, residues 284 288 289 292 302 303 NLSRDF	PhoP, residues 12 14 15 18 19 MHTVL (Escherichia coli, UniProt P23836)	Sort-seq, item: YFP reporter	E. coli	PhoQ-PhoP variant library, together with: 10 µM Mg2+	baseline: high Mg2+ state, higher = stronger signaling	fold induction	7.6

Excerpt of the above (set 1):
Strand	E-score
TCGGAGCA	-0.171
ACGGCTCG	-0.235
CACCCTCG	-0.301
